Measurements collected from several papers.
Parts stem from different laboratories: compare values within a part only.

Set 1
Target: Interferon regulatory factor 7, full length, phosphomimetic (IRF7, Homo sapiens, UniProt Q92985, residues 1-503, S471D/S472D/S475D/S476D/S477D/S483D/S484D/S487D)
Method: protein-binding microarray
Form: double-stranded DNA, one strand shown
Sample: in vitro
Concentration: 2200 nM top
Setting: 60-bp whole probe
Together with: salmon DNA 0.4 mg/ml
Reference: random background probes
Reading: higher = stronger binding
Shared flanks, not repeated: GCCTAGCAC … GTCTTGATTCGCTTGACGCTGCTG
Construct (chain): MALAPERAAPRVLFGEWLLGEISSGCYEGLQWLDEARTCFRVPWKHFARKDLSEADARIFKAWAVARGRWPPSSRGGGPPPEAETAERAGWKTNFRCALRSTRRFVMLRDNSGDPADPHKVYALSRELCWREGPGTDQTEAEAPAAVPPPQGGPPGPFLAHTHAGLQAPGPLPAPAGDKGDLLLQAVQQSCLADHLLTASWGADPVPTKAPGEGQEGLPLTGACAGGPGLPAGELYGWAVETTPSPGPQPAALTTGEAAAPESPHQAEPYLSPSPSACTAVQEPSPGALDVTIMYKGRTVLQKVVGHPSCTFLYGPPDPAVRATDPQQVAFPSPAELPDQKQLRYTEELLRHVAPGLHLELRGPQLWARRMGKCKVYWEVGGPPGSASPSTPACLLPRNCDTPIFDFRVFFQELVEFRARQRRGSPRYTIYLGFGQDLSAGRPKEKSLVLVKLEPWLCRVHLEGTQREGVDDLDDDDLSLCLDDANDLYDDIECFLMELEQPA
`GGGCTTTCCCAGCCTGGGGCTGTGCTA`: “fitted relative affinity” -1.35 z-score.
For `TCACCTTTCTCAACCTCACTGTGCTAG`, “fitted relative affinity” read 2.48 z-score.
For `TCAGATATTAAACTGATACTGTGCTAG`, “fitted relative affinity” read -0.245 z-score.
`TTACATTTTAATTTTATTTGGTGCTAG` — result for “fitted relative affinity”: 1.54 z-score.
For `CTTGGCTTCTCCCACAGGTGGTGCTAG`, “fitted relative affinity” read -0.226 z-score.
For `TGGGTTTTCAGCTGTTTTTCTGTGCTA`, “fitted relative affinity” read 1.07 z-score.
Under “fitted relative affinity”, `GGCGATATCAGTCTCGAGACGTGCTAG` is recorded as -0.148 z-score.
Under “fitted relative affinity”, `GACGATATCAGTATCGAGATGTGCTAG` is recorded as 0.225 z-score.
`TACGATTTCGGGACTGGAGACGTGCTA` — result for “fitted relative affinity”: 1.55 z-score.
For `GACGGACTGGGATTCGGGACGTGCTAG`, “fitted relative affinity” read -0.506 z-score.
`GACGAACTGAGACTCGAGACGTGCTAG` — result for “fitted relative affinity”: 0.162 z-score.
For `TTAGCTTTCGGTTTCGGTTAGTGCTAG`, “fitted relative affinity” read 17.7 z-score.

Set 2
Target: Centromere-binding protein 1, full length, His-tagged (CBF1, Saccharomyces cerevisiae, UniProt P17106, residues 1-351)
Chain of UniProt P17106 (whole entry, looked up): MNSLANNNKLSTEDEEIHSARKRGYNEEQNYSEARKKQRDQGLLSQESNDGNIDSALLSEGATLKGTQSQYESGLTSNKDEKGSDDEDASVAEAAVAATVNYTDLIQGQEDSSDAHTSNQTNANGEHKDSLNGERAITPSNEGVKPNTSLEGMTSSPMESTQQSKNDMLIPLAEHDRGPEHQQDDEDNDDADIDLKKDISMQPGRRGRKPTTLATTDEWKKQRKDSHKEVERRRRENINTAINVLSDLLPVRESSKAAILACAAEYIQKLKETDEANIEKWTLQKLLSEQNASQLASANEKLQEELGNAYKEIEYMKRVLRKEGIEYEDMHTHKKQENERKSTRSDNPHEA
Method: competition protein-binding microarray
Form: double-stranded DNA, one strand shown
Sample: in vitro
Concentration: 2 µM
Setting: whole 60-bp probe, lowest competitor level
Together with: Pho4 competitor, 0.05 µM
Reading: higher = stronger binding
`TCCATTCGAGACCTGTCCGTGATGGCGAGGACAAGAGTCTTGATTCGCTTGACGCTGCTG` has a fluorescence intensity of 65.2 a.u.
The fluorescence intensity of `TCCAGACGCTGTGGACACGTTAGACATCACCCTTGTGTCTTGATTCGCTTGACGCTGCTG` is reported as 74.7 a.u.
For `GTCTTGTCTCATTGAGACGTGGGTGTCCCCACTTCAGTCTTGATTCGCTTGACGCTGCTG`, the fluorescence intensity was 68.9 a.u.
`GAAGATAGCGGATCGCACGATGGCTCTAACGTTAGAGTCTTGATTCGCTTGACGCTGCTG` has a fluorescence intensity of 65.4 a.u.
The fluorescence intensity of `AAATTACTAAGTTGAGGGGTGGGTGACGCCGTATGAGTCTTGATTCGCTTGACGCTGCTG` is reported as 79.1 a.u.
`CTAACGAAGGTTTGAATAGTGGGTGACAAGCCAAGTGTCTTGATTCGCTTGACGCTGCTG` has a fluorescence intensity of 76.7 a.u.
`GACCTTATCAAAAAGCACGCTGCCGGCCAAGAAGTGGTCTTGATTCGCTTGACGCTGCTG` gave a fluorescence intensity of 80.3 a.u.
With `GGCAGGACGGACTTCCACGTGGAACTTAGGCATTCCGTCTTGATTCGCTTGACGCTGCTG` the fluorescence intensity was 318 a.u.

Set 3
Target: Fragile X messenger ribonucleoprotein 1, C-terminal low-complexity region (Fmr1, Mus musculus, UniProt P35922)
Method: RNA Bind-n-Seq
Form: RNA
Sample: in vitro
Concentration: 200 nM
Setting: whole 134-nt RNA, ends assumed
Together with: 150 mM KCl
Reference: input library
Reading: higher = stronger binding
With `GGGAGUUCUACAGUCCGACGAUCCCUCAAGUCCUGUGCUACACAUCGUAUGUACCGAAUCGGGGCGGGGCGGCGGAAAGUAUUAUGUUACGCCGUUCGGAUCUGCACUUCCAGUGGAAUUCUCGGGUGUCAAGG` the log2 enrichment was -0.029.
`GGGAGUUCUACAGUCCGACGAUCCAAGUCCUGUGCUACACAUCGUAUGUACCGAAUCGGGUGGGAAAGGGAAAAAGGGAAAGUAUUAUGUUACGCCGUUCGGAUCUGCACUUCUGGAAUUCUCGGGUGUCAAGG` has a log2 enrichment of 0.673.
`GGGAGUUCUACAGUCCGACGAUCACCAUGCAGGUGGGCAUCUUUGGGAAGUGGGGCAAGGGGGGGAUCGGGAGGGGGGUAACACUUUGGGAACAGGUGGUCCCAGGUCGUUUCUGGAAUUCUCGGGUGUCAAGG` gave a log2 enrichment of 0.721.
For `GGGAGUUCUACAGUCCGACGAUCAAGUCCUGUGCUACACAUCGUAUGUACCGAAUCGGCCCCGGGCCCCGGGGCCCCGGAAAGUAUUAUGUUACGCCGUUCGGAUCUGCACUUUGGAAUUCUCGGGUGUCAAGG`, the log2 enrichment was -0.559.
With `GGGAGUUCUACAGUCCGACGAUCAGUCCUGUGCUACACAUCGUAUGUACCGAAUCGGGAAAAAAAGGGAAAAAGGGAGGGAAAGUAUUAUGUUACGCCGUUCGGAUCUGCACUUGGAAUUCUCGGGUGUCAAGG` the log2 enrichment was 0.233.
The log2 enrichment of `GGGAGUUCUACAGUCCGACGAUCCCUGUGCUACACAUCGUAUGUACCGAAUCGGCCCCCCCGGGGCCCCCCCGGGCCCCCCCGGAAAGUAUUAUGUUACGCCGUUCGGAUCUGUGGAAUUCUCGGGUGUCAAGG` is reported as -0.668.
With `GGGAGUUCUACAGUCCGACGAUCCAAGUCCUGUGCUACACAUCGUAUGUACCGAAUCAAAUUUAAAUUUAAACCCAAAAAAGUAUUAUGUUACGCCGUUCGGAUCUGCACUUCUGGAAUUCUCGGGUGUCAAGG` the log2 enrichment was 0.185.
`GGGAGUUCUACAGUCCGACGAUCUGAACCUUCCAAUAGCAACCAAGAAAUAAACUCUGAUGACAGACGACCCCAAUGGAGACGAGAAGACCGAAUUCCUUACCAAGACAGAGAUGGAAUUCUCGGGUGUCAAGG` has a log2 enrichment of 0.402.
`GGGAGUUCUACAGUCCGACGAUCUCCUGUGCUACACAUCGUAUGUACCGAAUCGGGUUUUUUUGGGAAAAAGGGAAAAAGGGAAAGUAUUAUGUUACGCCGUUCGGAUCUGCAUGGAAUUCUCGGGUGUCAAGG` gave a log2 enrichment of -0.393.
The log2 enrichment of `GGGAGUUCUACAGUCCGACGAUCCUCAAGUCCUGUGCUACACAUCGUAUGUACCGAAUCGGGGCCGGGCCGGCCGGGAAAGUAUUAUGUUACGCCGUUCGGAUCUGCACUUCCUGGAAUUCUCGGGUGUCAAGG` is reported as -0.0638.

Set 4
Molecule: PhoQ, residues 284 288 289 292 302 303 DDMDFR
Method: Sort-seq
Item: YFP reporter
Sample: E. coli
Setting: PhoQ-PhoP variant library
Together with: 10 µM Mg2+
Reference: high Mg2+ state
Reading: higher = stronger signaling
It gave 0.627 for fold induction (PhoP, residues 12 14 15 18 19 TQALL (Escherichia coli, UniProt P23836)).
It gave 0.939 for fold induction (PhoP, residues 12 14 15 18 19 NYFRM (Escherichia coli, UniProt P23836)).
PhoP, residues 12 14 15 18 19 QYFSL (Escherichia coli, UniProt P23836) — fold induction: 0.591.

Excerpt of the above (set 2):
`GACCTTATCAAAAAGCACGCTGCCGGCCAAGAAGTGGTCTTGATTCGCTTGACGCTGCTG` gave a fluorescence intensity of 80.3 a.u.
`GAAGATAGCGGATCGCACGATGGCTCTAACGTTAGAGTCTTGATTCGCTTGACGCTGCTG` has a fluorescence intensity of 65.4 a.u.
For `GTCTTGTCTCATTGAGACGTGGGTGTCCCCACTTCAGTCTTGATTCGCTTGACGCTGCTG`, the fluorescence intensity was 68.9 a.u.
